Measured values from different studies.
Every numbered part comes from another study and shows a few of its results, in no order. Several values in a cell are separate wells, animals, samples, runs or records.

Sample 1
Compound: C[C@@H]1CN(c2ccc(-c3cc(C(=O)NCCOCCOCCOCCOCCNC(=O)/C=C/c4[nH]cc(C(=O)N[C@@H](CC(N)=O)c5ccc(F)c(Cl)c5)c4-c4ccc(Cl)cc4F)ccc3F)cc2NC(=O)c2c[nH]c(=O)cc2C(F)(F)F)C[C@H](C)N1C
Observed: thermal unfolding
Method: differential scanning fluorimetry
Concentration: 5.5 µM
Direction: higher = more unfolded
DCAF1: DDB1- and CUL4-associated factor 1 (DCAF1, Homo sapiens, UniProt Q9Y4B6)
Chain of UniProt Q9Y4B6 (whole entry, looked up): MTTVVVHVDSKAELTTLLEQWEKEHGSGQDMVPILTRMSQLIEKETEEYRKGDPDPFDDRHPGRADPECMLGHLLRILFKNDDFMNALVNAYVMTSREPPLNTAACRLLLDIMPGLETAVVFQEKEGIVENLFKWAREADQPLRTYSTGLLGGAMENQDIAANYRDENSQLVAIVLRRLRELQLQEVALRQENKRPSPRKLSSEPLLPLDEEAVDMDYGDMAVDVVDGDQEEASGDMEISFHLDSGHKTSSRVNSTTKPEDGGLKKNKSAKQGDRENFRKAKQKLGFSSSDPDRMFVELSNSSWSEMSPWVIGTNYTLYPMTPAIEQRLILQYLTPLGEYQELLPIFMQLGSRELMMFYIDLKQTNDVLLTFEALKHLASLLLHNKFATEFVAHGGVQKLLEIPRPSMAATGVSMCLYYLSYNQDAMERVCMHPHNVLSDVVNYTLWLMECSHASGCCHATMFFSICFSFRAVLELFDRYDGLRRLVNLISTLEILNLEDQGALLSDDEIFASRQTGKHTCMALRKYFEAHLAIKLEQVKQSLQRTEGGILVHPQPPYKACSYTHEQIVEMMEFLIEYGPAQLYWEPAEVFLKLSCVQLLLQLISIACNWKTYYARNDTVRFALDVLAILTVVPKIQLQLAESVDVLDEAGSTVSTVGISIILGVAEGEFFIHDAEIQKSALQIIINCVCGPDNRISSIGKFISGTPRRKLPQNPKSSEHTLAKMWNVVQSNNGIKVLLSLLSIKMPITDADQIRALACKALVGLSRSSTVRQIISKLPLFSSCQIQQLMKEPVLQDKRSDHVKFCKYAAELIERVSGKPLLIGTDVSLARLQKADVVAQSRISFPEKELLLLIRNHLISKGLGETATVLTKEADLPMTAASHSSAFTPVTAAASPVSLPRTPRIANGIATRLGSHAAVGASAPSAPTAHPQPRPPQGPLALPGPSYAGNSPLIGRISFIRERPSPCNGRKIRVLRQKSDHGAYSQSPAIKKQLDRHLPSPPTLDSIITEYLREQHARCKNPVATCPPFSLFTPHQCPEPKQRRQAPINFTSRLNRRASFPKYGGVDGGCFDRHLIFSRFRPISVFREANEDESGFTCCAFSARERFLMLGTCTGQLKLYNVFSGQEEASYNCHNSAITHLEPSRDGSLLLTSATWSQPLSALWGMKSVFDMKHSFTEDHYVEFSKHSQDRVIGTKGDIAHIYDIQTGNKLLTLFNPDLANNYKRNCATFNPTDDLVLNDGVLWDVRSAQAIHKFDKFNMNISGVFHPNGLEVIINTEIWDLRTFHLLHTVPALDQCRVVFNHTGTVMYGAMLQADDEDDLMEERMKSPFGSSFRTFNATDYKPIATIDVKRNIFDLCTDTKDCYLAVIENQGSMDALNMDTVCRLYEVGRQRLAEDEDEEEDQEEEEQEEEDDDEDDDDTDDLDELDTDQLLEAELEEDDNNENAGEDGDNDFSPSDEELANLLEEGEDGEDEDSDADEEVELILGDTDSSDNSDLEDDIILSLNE
WDR5: WD repeat-containing protein 5 (WDR5, Homo sapiens, UniProt P61964)
For DCAF1; 70.41 °C: “SYPRO Orange fluorescence” read 55400 a.u.
It gave 10400 a.u. for “SYPRO Orange fluorescence” (DCAF1; 35.8 °C).
For DCAF1; 78.01 °C: “SYPRO Orange fluorescence” read 47100 a.u.
It gave 47400 a.u. for “SYPRO Orange fluorescence” (DCAF1; 61.41 °C).
WDR5; 31.8 °C — “SYPRO Orange fluorescence”: 12700 a.u.
For WDR5; 63.61 °C: “SYPRO Orange fluorescence” read 14100 a.u.

Sample 2
Species: female CD-1 mouse
Sample: plasma
Route: oral
Dose: 10 mg/kg
`Cc1ccc(O)c(C)c1-c1cnc2[nH]c(-c3cnc(N4CCC(CCN5CCN(c6ccc(NC7CCC(=O)NC7=O)cc6F)CC5)CC4)nc3)cc2c1C#N` (stereo not drawn) has a half-life of 3.4 h.
For `Cc1ccc(O)c(C)c1-c1cnc2[nH]c(-c3cnc(N4CCC(CN5CCC(c6ccc(NC7CCC(=O)NC7=O)cc6F)CC5)CC4)nc3)cc2c1C#N` (stereo not drawn), the half-life was 3 h.
`Cc1ccc(O)c(C)c1-c1cnc2[nH]c(-c3cnc(N4CCC(CN5CCN(c6ccc7c(c6)CN(C6CCC(=O)NC6=O)C7=O)CC5)CC4)nc3)cc2c1C#N` (stereo not drawn) gave a half-life of 1.5 h.

Other studies, line by line
`CCOc1ccc2nc(Sc3nc(Nc4ccc(I)cc4)nc(N4CCOCC4)n3)sc2c1` gave an enzyme activity of 203% and 255% and 264% and 217% and 165% and 262% and 278% (L444P/L444P Gaucher fibroblasts; 4-MUG hydrolysis in lysate; 10 µM, 72 h; relative to: vehicle).
`O=C(CCCCn1ccnc1Cn1ccc2ccc(CNCc3[nH]c4ccccc4c3C3NC(=O)c4ccc(O)cc43)cc21)NCCOCCOCCOCCNC(=O)CCc1ccc2n1[B-](F)(F)[N+]1=C(c3ccc[nH]3)C=CC1=C2` (stereo not drawn) has an EC50 of over 1000 nM (GTPase HRas (HRAS, Homo sapiens, UniProt P01112, G12V); target engagement, NanoBRET; HEK293 cells).
`CCN1/C(=C/C=C2\CCCC(/C=C/C3=[N+](CC)c4ccccc4C3(C)C)=C2NCCCCCCCCN2CCC(Nc3nc4ccccc4n3Cc3ccc(F)cc3)CC2)C(C)(C)c2ccccc21` — result for “aggregate particle size”: 200 to 1000 nm (dynamic light scattering; saline and PBS at various pH; range).

A few entries again (other studies, line by line):
`O=C(CCCCn1ccnc1Cn1ccc2ccc(CNCc3[nH]c4ccccc4c3C3NC(=O)c4ccc(O)cc43)cc21)NCCOCCOCCOCCNC(=O)CCc1ccc2n1[B-](F)(F)[N+]1=C(c3ccc[nH]3)C=CC1=C2` (stereo not drawn) has an EC50 of over 1000 nM (GTPase HRas (HRAS, Homo sapiens, UniProt P01112, G12V); target engagement, NanoBRET; HEK293 cells).
